Assay results gathered from unrelated publications.

`N=C(N)NCCC[C@@H]1NC(=O)[C@H](CCCNC(=N)N)NC(=O)[C@@H](CCCNC(=N)N)NC(=O)[C@@H](CCCNC(=N)N)NC(=O)[C@@H](C(c2ccccc2)c2ccccc2)NC(=O)[C@H](Cc2c[nH]c3ccccc23)NC(=O)[C@@H](C(c2ccccc2)c2ccccc2)NC1=O` has an MIC of 8 mg/L (Paecilomyces variotii; MYA-3630).
With `C/C(=C\c1ccc(O)cc1)C(=O)Nc1ccc(C(=O)N[C@@H](Cc2c[nH]nn2)C(=O)Nc2ccc(C(=O)Nc3ccc(C(=O)Nc4ccc(C(=O)O)c(O)c4)c(O)c3)cc2)cc1` the MIC was 0.5 mg/L (Micrococcus luteus; broth microdilution; DSM 1790).
`CC[C@H](C)[C@@H]1NC(=O)[C@@H]([C@@H](C)O)NC(=O)CNC(=O)[C@H](CC(=O)O)NC(=O)CNC(=O)[C@H](CC(=O)O)NC(=O)CNC(=O)[C@H]2CCCCN2C(=O)[C@@H](NC(=O)[C@H](CC(=O)O)NC(=O)/C=C/CCCCCCCCCC(C)C)CNC(=O)[C@@H]2CCCN2C1=O` has an MIC of 4 mg/L (Staphylococcus simulans; broth microdilution; 22, Mueller-Hinton broth, Mg2+ 10 mg/L; 16 h, 30 °C, added: Ca2+ 5 mM).
The MIC of `CC[C@H](C)[C@H](NC(=O)[C@H](CC(N)=O)NC(=O)[C@H](CCC(N)=O)NC(=O)[C@H](CC(C)C)NC(=O)[C@@H](NC(=O)[C@H](Cc1ccccc1)NC(=O)[C@H](Cc1ccc(O)cc1)NC(=O)[C@H](CO)NC(=O)[C@H](CS)NC(=O)[C@H](CC(C)C)NC(=O)[C@H](CCCCN)NC(=O)[C@H](CCCCN)NC(=O)[C@H](CCCNC(=N)N)NC(=O)[C@H](CCCNC(=N)N)NC(=O)[C@H](CS)NC(=O)[C@H](CCCNC(=N)N)NC(=O)[C@H](CCCCN)NC(=O)[C@H](CCCNC(=N)N)NC(=O)[C@H](CCCCN)NC(=O)[C@H](Cc1ccccc1)NC(=O)[C@@H](N)CCCNC(=N)N)[C@@H](C)CC)C(=O)N[C@@H](CC(N)=O)C(=O)N[C@@H](Cc1ccccc1)C(=O)N[C@@H](CCCNC(=N)N)C(=O)N[C@@H](CC(C)C)C(=O)N[C@@H](CCCNC(=N)N)C(=O)N[C@@H](CCCCN)C(=O)NCC(=O)N[C@@H](CCCCN)C(=O)O` is reported as 8 mg/L (Micrococcus luteus; broth microdilution; ATCC 4698; 43 h, 37 °C, cation-adjusted Mueller-Hinton broth).
`COc1cc(C(=O)O)ccc1NC(=O)c1ccc(NC(=O)c2ccc(NC(=O)[C@H](Cc3c[nH]nn3)NC(=O)c3ccc(NC(=O)/C(C)=C/c4ccc(O)cc4)cc3)cc2)c(OC)c1O` gave an MIC of 1 mg/L (Micrococcus luteus; broth microdilution; DSM 1790).
The MIC of `N=C(N)NCCC[C@@H]1NC(=O)[C@H](CCCNC(=N)N)NC(=O)[C@H](CCCNC(=N)N)NC(=O)[C@@H](CCCNC(=N)N)NC(=O)[C@H](Cc2ccc3ccccc3c2)NC(=O)[C@H](Cc2ccc3ccccc3c2)NC(=O)[C@H](Cc2ccc3ccccc3c2)NC1=O` is reported as 8 mg/L (Paecilomyces variotii; MYA-3630).
The MIC of `Cc1c(CN(C)C(=O)/C=C/c2cnc3c(c2)CC(N)C(=O)N3)oc2ccccc12` (stereo not drawn) is reported as 4 mg/L (Escherichia coli; microbial growth, broth dilution; BAA2340; clinical isolate).
`COc1nc(C(=O)Nc2ccc(C(=O)O)nc2OC)ccc1NC(=O)c1ccc(NC(=O)[C@H](Cc2c[nH]nn2)NC(=O)c2ccc(NC(=O)/C(C)=C/c3ccc(O)cc3)cc2)cc1` has an MIC of 2 mg/L (Micrococcus luteus; broth microdilution; DSM 1790).
`COC1C=COC2(C)Oc3c(C)c(O)c4c(c3C2=O)C2=NC3(CCN(CC(C)C)CC3)NC2=C(NC(=O)C(C)=CC=CC(C)C(O)C(C)C(O)C(C)C(OC(=O)Nc2cnccn2)C1C)C4=O` (stereo not drawn) gave an MIC of 0.028 µM (Mycobacteroides abscessus; broth microdilution; ATCC 19977).
For `CC1C=CC=CC(C)C2C=CC3CC(C)(O)C(Cl)C(C)C3C2C(=O)C(Cl)(Cl)C(=O)C(C)C(=O)O1` (stereo not drawn), the MIC was 0.1 mg/L (Staphylococcus aureus; MRSA clinical isolate; resistant, OXA, CIP, MXF, ERY, CLI, RIF).
`C#CCOc1ccc(CN[C@@]2(C)C[C@H](O[C@H]3[C@H](Oc4c5cc6cc4Oc4ccc(cc4Cl)[C@@H](O)[C@@H](NC(=O)[C@@H](CC(C)C)NC)C(=O)N[C@@H](CC(N)=O)C(=O)N[C@H]6C(=O)N[C@H]4C(=O)N[C@H](C(=O)N[C@H](C(=O)O)c6cc(O)cc(O)c6-c6cc4ccc6O)[C@H](O)c4ccc(c(Cl)c4)O5)O[C@H](CO)[C@@H](O)[C@@H]3O)O[C@@H](C)[C@H]2O)cc1OC` has an MIC of 1 mg/L (Staphylococcus simulans; broth microdilution; 22, cation-adjusted Mueller-Hinton broth; 20 to 24 h, 37 °C, 0.002% polysorbate 80).
`COC1=CC(c2ccc[nH]2)=NC1=CNC1CCCCCC1.Cl` has an MIC of 8 mg/L (Candidozyma auris; broth microdilution; CDC AR Bank #0381; 24 h).
With `CN[C@H](CC(C)C)C(=O)N[C@H]1C(=O)N[C@@H](CC(N)=O)C(=O)N[C@H]2C(=O)N[C@H]3C(=O)N[C@H](C(=O)N[C@H](C(=O)O)c4cc(O)cc(O)c4-c4cc3ccc4O)[C@H](O)c3ccc(c(Cl)c3)Oc3cc2cc(c3O[C@@H]2O[C@H](CO)[C@@H](O)[C@H](O)[C@H]2O[C@H]2C[C@](C)(N)[C@H](O)[C@H](C)O2)Oc2ccc(cc2Cl)[C@H]1O` the MIC was 0.13 mg/L (Bacillus; broth microdilution; DSM 25372; 24 h, aerobic, 30 °C).
`CC(C)C[C@@H]1NC(=O)[C@@H](CC(C)C)NC(=O)[C@H](CCN)NC(=O)[C@@H](NC(=O)[C@H](CCN)NC(=O)[C@@H](N)[C@@H](C)O)CCNC(=O)[C@H]([C@@H](C)O)NC(=O)[C@H](CCN)NC(=O)[C@H](CCN)NC1=O` gave an MIC of > 128 mg/L (Staphylococcus simulans; broth microdilution; 22, cation-adjusted Mueller-Hinton broth; 20 to 24 h, 37 °C, 0.002% polysorbate 80).
For `C=C[C@]1(C)C[C@@H](OC(=O)CSc2ccc(NC(=O)c3ccco3)cc2)[C@]2(C)[C@H](C)CC[C@]3(CCC(=O)[C@H]32)[C@@H](C)[C@@H]1O`, the MIC was 0.00195 mg/L (Mycoplasma gallisepticum; chicken lung isolates; 40 mg/kg to chickens).
With `C#CCOc1ccc(CN[C@@]2(C)C[C@H](O[C@H]3[C@H](Oc4c5cc6cc4Oc4ccc(cc4Cl)[C@@H](O)[C@@H](NC(=O)[C@@H](CC(C)C)NC)C(=O)N[C@@H](CC(N)=O)C(=O)N[C@H]6C(=O)N[C@H]4C(=O)N[C@H](C(=O)N[C@H](C(=O)NCC(N)=O)c6cc(O)cc(O)c6-c6cc4ccc6O)[C@H](O)c4ccc(c(Cl)c4)O5)O[C@H](CO)[C@@H](O)[C@@H]3O)O[C@@H](C)[C@H]2O)cc1OC` the MIC was 0.25 mg/L (Staphylococcus simulans; broth microdilution; 22, cation-adjusted Mueller-Hinton broth; 20 to 24 h, 37 °C, 0.002% polysorbate 80).
For `CCCCCCCCCCCCCCCCCCn1cc(CN(CCC(=O)NCCN(CCC(=O)NCCN(CCC(=O)NCCN(C)C)CCC(=O)NCCN(C)C)CCC(=O)NCCN(CCC(=O)NCCN(C)C)CCC(=O)NCCN(C)C)CCC(=O)NCCN(CCC(=O)NCCN(CCC(=O)NCCN(C)C)CCC(=O)NCCN(C)C)CCC(=O)NCCN(CCC(=O)NCCN(C)C)CCC(=O)NCCN(C)C)nn1`, the MIC was 6 mg/L (Vibrio parahaemolyticus; RIMD 2210633, LB broth; 18 h).
The MIC of `C[C@@H]1C(=O)O[C@@H](C)/C=C/C=C\[C@@H](C)[C@@H]2C=C[C@@H]3C[C@@]4(C)O[C@H]4[C@@H](C)[C@H]3[C@@H]2C(=O)C(Cl)(Cl)C1=O` is reported as 0.05 mg/L (Staphylococcus aureus; MRSA clinical isolate; resistant OXA/CLI/ERY).
The MIC of `CN[C@H](CC(C)C)C(=O)N[C@H]1C(=O)N[C@@H](CC(N)=O)C(=O)N[C@H]2C(=O)N[C@H]3C(=O)N[C@H](C(=O)N[C@H](C(=O)NCC(N)=O)c4cc(O)cc(O)c4-c4cc3ccc4O)[C@H](O)c3ccc(c(Cl)c3)Oc3cc2cc(c3O[C@@H]2O[C@H](CO)[C@@H](O)[C@H](O)[C@H]2O[C@H]2C[C@](C)(NCc3ccc(OCc4cn(CC(=O)N[C@H](C(=O)N[C@@H](CCN)C(=O)N[C@H]5CCNC(=O)[C@H]([C@@H](C)O)NC(=O)[C@H](CCN)NC(=O)[C@H](CCN)NC(=O)[C@H](CC(C)C)NC(=O)[C@@H](CC(C)C)NC(=O)[C@H](CCN)NC5=O)[C@@H](C)O)nn4)c(OC)c3)[C@H](O)[C@H](C)O2)Oc2ccc(cc2Cl)[C@H]1O` is reported as ≤ 0.008 mg/L (Staphylococcus simulans; broth microdilution; 22, cation-adjusted Mueller-Hinton broth; 20 to 24 h, 37 °C, 0.002% polysorbate 80).
For `CCOc1c(NC(=O)c2ccc(NC(=O)c3ccc(NC(=O)[C@H](Cc4c[nH]nn4)NC(=O)c4ccc(NC(=O)/C(C)=C/c5ccc(O)cc5)cc4)cc3)c(OCC)c2O)ccc(C(=O)O)c1O`, the MIC was 0.5 mg/L (Micrococcus luteus; broth microdilution; DSM 1790).
With `CC[C@H](C)[C@H](NC(=O)[C@H](CCC(N)=O)NC(=O)[C@H](Cc1ccccc1)NC(=O)[C@H](CC(N)=O)NC(=O)[C@H](CCCCN)NC(=O)[C@H](CC(C)C)NC(=O)[C@H](CCCNC(=N)N)NC(=O)[C@H](CCCCN)NC(=O)[C@H](CCCCN)NC(=O)[C@@H](NC(=O)[C@H](CO)NC(=O)[C@H](CCCCN)NC(=O)CNC(=O)[C@H](CC(C)C)NC(=O)[C@H](CCCCN)NC(=O)[C@H](CCCCN)NC(=O)[C@H](CC(C)C)NC(=O)[C@H](CCCCN)NC(=O)[C@H](CCCCN)NC(=O)[C@H](CCCNC(=N)N)NC(=O)[C@H](CC(C)C)NC(=O)CNC(=O)[C@@H](N)CCCNC(=N)N)[C@@H](C)CC)C(=O)NCC(=O)N[C@@H](Cc1ccccc1)C(=O)N[C@@H](CO)C(=O)N[C@H](C(=O)N1CCC[C@H]1C(=O)N[C@@H](Cc1ccccc1)C(=O)N[C@@H](C)C(=O)NCC(=O)O)C(C)C` the MIC was 1.12 µM (Micrococcus luteus; broth microdilution; ATCC 4698).
